{"data": "Results of several laboratories", "note": "A part holds a random share of what one study measured."}
{"data": "Study 1", "target": "Replicase polyprotein 1ab, main protease (rep, Severe acute respiratory syndrome coronavirus 2, UniProt P0DTD1)", "effect on": "enzyme activity", "mode": "inhibitor", "tested at": "20 µM", "setting": "hit confirmation"}
{"Compound": "CNC(=O)ON(C(C)=O)C(=O)NC", "inhibition": "94.7%"}
{"Compound": "CC(=O)O/N=C1/C(=O)N(Cc2cc(Cl)ccc2Cl)c2ccc(Cl)cc21", "inhibition": "66.6%"}
{"Compound": "O=c1[nH]nc(Sc2ncc([N+](=O)[O-])s2)n1-c1ccc2c(c1)OCCO2", "inhibition": "101%"}
{"data": "Study 2", "target": "Sal-like protein 4, full length isoform B (SALL4, Homo sapiens, UniProt Q9UJQ4-2, residues 1-616)", "method": "universal PBM", "molecule type": "double-stranded DNA, one strand shown", "medium": "in vitro", "tested at": "not given", "setting": "8-mer, flanks averaged, mean of replicates", "direction": "higher = stronger binding"}
{"Oligonucleotide": "CGTCCACC", "E-score": -0.286}
{"Oligonucleotide": "CTATTTGA", "E-score": 0.207}
{"Oligonucleotide": "CAACCGAA", "E-score": -0.0637}
{"Oligonucleotide": "ACCAATTC", "E-score": 0.00939}
{"Oligonucleotide": "CTGCGCTC", "E-score": -0.278}
{"Oligonucleotide": "CATTAGCG", "E-score": -0.0518}
{"Oligonucleotide": "CCAAGTCG", "E-score": -0.183}
{"Oligonucleotide": "AGTTTAGA", "E-score": 0.0712}
{"data": "Study 3", "target": "PABPC1L2, full length, GST fusion (mouse, UniProt A0ABA7IW68)", "method": "RNAcompete", "molecule type": "RNA", "medium": "in vitro", "tested at": "20 nM", "setting": "7-mer, probes averaged, single round", "baseline": "mean of 7-mers", "direction": "higher = stronger binding", "Target sequence (chain)": "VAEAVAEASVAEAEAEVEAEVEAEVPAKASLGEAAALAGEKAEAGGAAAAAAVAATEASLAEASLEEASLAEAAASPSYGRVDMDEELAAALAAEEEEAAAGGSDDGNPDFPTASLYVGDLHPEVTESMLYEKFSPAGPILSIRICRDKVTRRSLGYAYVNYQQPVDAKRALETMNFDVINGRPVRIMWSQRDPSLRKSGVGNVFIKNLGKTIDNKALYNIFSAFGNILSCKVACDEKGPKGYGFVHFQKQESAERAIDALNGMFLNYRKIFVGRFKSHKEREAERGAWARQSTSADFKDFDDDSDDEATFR"}
{"Oligonucleotide": "GUUCUGU", "7-mer Z-score": -0.402}
{"Oligonucleotide": "UGCUAGA", "7-mer Z-score": 0.0569}
{"Oligonucleotide": "AAUACCG", "7-mer Z-score": 0.066}
{"Oligonucleotide": "CGGAAUU", "7-mer Z-score": -0.0246}
{"Oligonucleotide": "ACGGCCC", "7-mer Z-score": -0.05}
{"Oligonucleotide": "GAUGAUA", "7-mer Z-score": -0.0554}
{"Oligonucleotide": "CAAAGGC", "7-mer Z-score": 0.142}
{"Oligonucleotide": "CAAAUCA", "7-mer Z-score": 0.249}
{"data": "Study 4", "target": "Eukaryotic initiation factor 4A-I (EIF4A1, Homo sapiens, UniProt P60842, residues 1-406, full length assumed)", "method": "RNA Bind-n-Seq", "molecule type": "RNA", "medium": "in vitro", "tested at": "15 pmol", "setting": "4-mer, random 30-nt RNA, single round", "added": "DMSO vehicle, 2 mM AMP-PNP", "baseline": "input library", "direction": "higher = stronger binding", "chain of UniProt P60842 (whole entry, looked up)": "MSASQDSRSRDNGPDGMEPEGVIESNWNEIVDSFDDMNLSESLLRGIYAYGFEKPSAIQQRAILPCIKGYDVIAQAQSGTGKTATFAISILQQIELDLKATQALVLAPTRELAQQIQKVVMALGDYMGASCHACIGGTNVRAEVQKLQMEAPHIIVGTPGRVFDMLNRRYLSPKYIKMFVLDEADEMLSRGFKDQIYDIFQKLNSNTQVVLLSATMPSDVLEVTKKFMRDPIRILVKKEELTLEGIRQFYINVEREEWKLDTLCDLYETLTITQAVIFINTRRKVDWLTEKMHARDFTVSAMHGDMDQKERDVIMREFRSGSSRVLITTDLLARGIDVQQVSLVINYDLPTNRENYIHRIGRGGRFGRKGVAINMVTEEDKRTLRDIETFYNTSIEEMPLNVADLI"}
{"Oligonucleotide": "CGGA", "4-mer enrichment [fold]": 0.916}
{"Oligonucleotide": "AUAU", "4-mer enrichment [fold]": 0.859}
{"Oligonucleotide": "GACA", "4-mer enrichment [fold]": 0.999}
{"Oligonucleotide": "UAUC", "4-mer enrichment [fold]": 0.835}
{"Oligonucleotide": "GAUC", "4-mer enrichment [fold]": 0.489}
{"data": "Study 5", "target": "Replicase polyprotein 1ab, nsp13 helicase (rep, Severe acute respiratory syndrome coronavirus 2, UniProt P0DTD1)", "mode": "inhibitor", "tested at": "20 µM"}
{"SMILES": "O=C(Nc1ccc(CN2CCOCC2)cc1)c1ccc(-c2cccc(Cl)c2)o1", "inhibition [%]": -3.49}
{"SMILES": "CNC(=O)c1ccc2c(c1)CCO[C@H]2CCN1CCN(c2ccc(C(N)=O)cc2)CC1", "inhibition [%]": 5.26}
{"SMILES": "COc1cc(C(=O)OCCCN2CCCN(CCCOC(=O)c3cc(OC)c(OC)c(OC)c3)CC2)cc(OC)c1OC", "inhibition [%]": 1.19}
{"SMILES": "CC(C)COc1ccc(CNC(=O)N(Cc2ccc(F)cc2)C2CCN(C)CC2)cc1", "inhibition [%]": 6.55}
{"SMILES": "CCCCCCCCCCCC[N+](C)(C)CCOc1ccccc1", "inhibition [%]": 8.41}
{"SMILES": "CC[C@H](C)[C@H](N)C(=O)O", "inhibition [%]": 5.58}
{"SMILES": "CNC(=O)c1ccc2c(c1)S(=O)(=O)c1ccccc1C2=O", "inhibition [%]": 23.4}
{"SMILES": "CN(C)CCCCSC(=N)N", "inhibition [%]": 7.08}
{"SMILES": "CN1CCC(NC(=O)c2cc(-c3c(O)cc(O)cc3Oc3ccc([N+](=O)[O-])cc3)on2)CC1", "inhibition [%]": 6.46}
{"SMILES": "CC(C)(O/N=C(\\C(=O)N[C@@H]1C(=O)N2C(C(=O)[O-])=C(C[n+]3ccccc3)CS[C@H]12)c1csc(N)n1)C(=O)O", "inhibition [%]": 6.81}
{"SMILES": "CC(=O)N[C@@H](CC(=O)N[C@@H](CCC(=O)O)C(=O)O)C(=O)O", "inhibition [%]": -0.88}
{"SMILES": "C[N+](C)(C)NCCC(=O)[O-]", "inhibition [%]": 7.36}
{"SMILES": "CC(=O)c1cnc2ccc(-c3cc(Cl)c(O)c(Cl)c3)nc2c1N[C@H]1CC[C@H](CN(C)C)CC1", "inhibition [%]": 15.2}
{"SMILES": "CC(=O)N(c1onc(C)c1C)S(=O)(=O)c1ccc(N)cc1", "inhibition [%]": 12.1}
{"SMILES": "CC[C@@H](C)CNCC(=O)N1CCc2sccc2[C@@H]1COc1cccc(C)c1", "inhibition [%]": -0.02}
{"SMILES": "COc1cc(C[C@H]2C(=O)OC[C@@H]2Cc2ccc(OC)c(OC)c2)ccc1O", "inhibition [%]": 4.85}
{"SMILES": "CNCC(O)c1ccc(OC(=O)C(C)(C)C)c(OC(=O)C(C)(C)C)c1 (centres unmarked)", "inhibition [%]": 8.53}
{"SMILES": "Cc1ccccc1N1CCN(CCc2nnc3n2CCCC3)CC1", "inhibition [%]": 1.68}
{"SMILES": "O=C(c1cc(C2CC2)on1)N(C1CCCCC1)C1CCCCC1", "inhibition [%]": 7.28}
{"SMILES": "COc1cccc([C@@]2(O)CCCC[C@@H]2CN(C)C)c1", "inhibition [%]": -3.59}
{"SMILES": "CC1CNc2c(cccc2S(=O)(=O)N[C@@H](CCCNC(=N)N)C(=O)N2CC[C@@H](C)C[C@@H]2C(=O)O)C1 (some centres unmarked)", "inhibition [%]": 3.84}
{"SMILES": "CC(=O)N[C@H]1[C@@H](O)[C@H](O)[C@@H](CO)O[C@@H]1O", "inhibition [%]": 7.36}
{"SMILES": "O=C(O)C1(c2ccc(-c3ccc(Cl)c(Cl)c3)c(F)c2)CC1", "inhibition [%]": 2.74}
{"SMILES": "O=C(N[C@H]1CN2CCC1CC2)c1ccc2c(c1)OCCO2", "inhibition [%]": 3.04}
{"SMILES": "Cl[C@H]1[C@H](Cl)[C@@H](Cl)[C@@H](Cl)[C@H](Cl)[C@H]1Cl", "inhibition [%]": 2.25}
{"data": "Mixed results"}
{"Compound": "C[C@@H]1O[C@@H]1P(=O)(O)O", "cell line": "HEK-293T", "test": "pseudovirus infection, FDA-approved drug library screen", "system": "VSV pseudotyped with SARS-CoV-2 spike", "setting": "10 µM, 16 h", "how to read": "baseline: vehicle-treated", "endpoint": "GFP-positive cells", "result": "88.7%"}
{"note": "Excerpt of the above (study 1):"}
{"Compound": "CNC(=O)ON(C(C)=O)C(=O)NC", "inhibition": "94.7%"}
{"Compound": "O=c1[nH]nc(Sc2ncc([N+](=O)[O-])s2)n1-c1ccc2c(c1)OCCO2", "inhibition": "101%"}
{"Compound": "CC(=O)O/N=C1/C(=O)N(Cc2cc(Cl)ccc2Cl)c2ccc(Cl)cc21", "inhibition": "66.6%"}
